Published values of several laboratories.
Protocols differ between the studies behind these lines. Several values in a cell are separate wells, animals, samples, runs or records. Numbers after ± are the reported error.

CC(=O)NCSC[C@H](NC(=O)[C@@H]1CCCN1C(=O)[C@H](C)NC(=O)[C@@H](NC(=O)CNC(=O)[C@@H](NC(=O)[C@H](Cc1c[nH]c2ccccc12)NC(=O)[C@H](C)NC(=O)CNC(=O)[C@H](CO)NC(=O)[C@H](C)NC(=O)[C@@H]1CCCN1C(=O)[C@H](Cc1c[nH]c2ccccc12)NC(=O)[C@H](C)NC(=O)[C@H](C)NC(=O)[C@@H](N)Cc1ccc(O)cc1)[C@@H](C)O)[C@@H](C)O)C(=O)N[C@@H](CO)C(=O)N[C@@H](C)C(=O)NCC(=O)N[C@H](C(=O)NCCOCCOCCOCCOCCOCCOCCOCCOCCOCCOCCOCCOCCC(=O)N[C@@H](CS)C(N)=O)[C@@H](C)O — selectivity ratio (Calu-1 lung mucoepidermoid carcinoma; cell binding, phage binding, measured: output/input phage; 10 min, 37 °C; baseline: control phage): 92 ± 19
CC[C@H](C)[C@H](NC(=O)CNC(=O)[C@H](Cc1ccc(O)cc1)NC(=O)[C@H](CO)NC(=O)[C@H](Cc1ccc(O)cc1)NC(=O)[C@@H](NC(=O)[C@H](CC(=O)O)NC(=O)[C@H](CO)NC(=O)[C@H](CCC(N)=O)NC(=O)[C@H](Cc1ccccc1)NC(=O)[C@H](CO)NC(=O)[C@H](Cc1ccccc1)NC(=O)[C@@H]1CCCN1C(=O)[C@H](CC(N)=O)NC(=O)[C@H](CC(N)=O)NC(=O)[C@H](CC(=O)O)NC(=O)[C@H](CCC(N)=O)NC(=O)[C@@H]1CCCN1C(=O)[C@H](CCCNC(=N)N)NC(=O)[C@H](CCCNC(=N)N)NC(=O)[C@H](CCCNC(=N)N)NC(=O)[C@H](CCC(N)=O)NC(=O)[C@H](CCCNC(=N)N)NC(=O)[C@H](CCCNC(=N)N)NC(=O)[C@H](CCCCN)NC(=O)[C@H](CCCCN)NC(=O)[C@H](CCCNC(=N)N)NC(=O)CN)C(C)C)C(=O)N[C@H](C(=O)N[C@@H](CC(C)C)C(N)=O)C(C)C — phospho-MEK1/2 level (MCF7; immunoblot densitometry, measured: phospho-MEK1/2 Ser217/221; 10 µM, 48 h, unit not given; baseline: 0 µM): 0.719 and 0.619
C=CCN1C(=O)C(CC=C)(C(=O)OCC)Oc2cc(F)ccc21 (centres unmarked) — inhibition (L02; cell growth or viability, CCK-8; 100 µM, 72 h): 3.66%
CC(C)C[C@H](NC(=O)[C@H](CC(=O)O)NC(=O)CNC(=O)[C@@H](N)CCCNC(=N)N)C(=O)N[C@@H](C)C(=O)N[C@H](C(=O)N[C@@H](CC(C)C)C(=O)N[C@@H](CCCNC(=N)N)C(=O)N[C@@H](CCC(N)=O)C(=O)N[C@@H](CC(C)C)C(=O)N[C@@H](C)C(=O)N[C@@H](CCC(N)=O)C(=O)N[C@@H](CCC(=O)O)C(=O)N[C@@H](CC(=O)O)C(=O)NCC(=O)N[C@H](C(=O)N[C@H](C(=O)NCC(=O)N[C@H](C(=O)N[C@@H](CCCNC(=N)N)C(=O)NCCOCCOCCOCCOCCOCCOCCOCCOCCOCCOCCOCCOCCC(=O)N[C@@H](CS)C(N)=O)C(C)C)C(C)C)C(C)C)[C@@H](C)O — selectivity ratio (H2073 lung adenocarcinoma; cell binding, phage binding, measured: output/input phage; 10 min, 37 °C; baseline: control phage): 54 ± 18
CC(C)CC(O)(CC(C)C)c1cn(C(=O)N2CCCC2)nn1 — protein level (mouse T-cells; SILAC proteomics, measured: Skp1a; 1 nM, 6 h, single peptides, unit not given; baseline: DMSO): 1.03 and 1.05
C#CCN1C(=O)C(CC#C)(C(=O)OCC)Oc2ccccc21 (centres unmarked) — inhibition (L02; cell growth or viability, CCK-8; 25 µM, 72 h): 0.67%
O=C1NC2(CC2)COc2ncc(F)cc2[C@H]2COCCN2c2ccn3ncc1c3n2 — neutrophils (Sprague-Dawley rat, male, blood; oral, 10 mg/kg/day, end of treatment, 4-week repeated-dose toxicity; baseline: leukocytes): 22.6 ± 12.3%
COc1ccccc1-c1ccncc1C(=O)Nc1nnc(OCc2ccc(Cl)cc2)s1 — colony survival (RPE-1 TP53-/- BRCA1-/-; 0.06 µM, average of 2 runs; baseline: untreated): 67.3%
Cc1cc(Oc2nc(N3CC[C@@H](c4ccncc4)C3)ncc2F)[nH]n1 — IC50 (uterus cancer cell lines; cell proliferation; average over lines): 83.2 µM
CC(C)(C)C(=O)OCOP(=O)(OCOC(=O)C(C)(C)C)C1CCCN(O)C1=O (centres unmarked) — Log10LC50 (CCRF-CEM): > -4 log M
O=C(O)c1ccc(-c2nc(-c3ccccc3Cl)c3sccn23)cc1 — concentration for near-maximal ROS (K562; CellROX Red, measured: reactive oxygen species): 20 µM

A few entries again:
CC(C)CC(O)(CC(C)C)c1cn(C(=O)N2CCCC2)nn1 — protein level (mouse T-cells; SILAC proteomics, measured: Skp1a; 1 nM, 6 h, single peptides, unit not given; baseline: DMSO): 1.03 and 1.05
